Published values gathered from unrelated publications.
A part holds a random share of what one study measured.
Sequence of UniProt Q9BWU1 (whole entry, looked up): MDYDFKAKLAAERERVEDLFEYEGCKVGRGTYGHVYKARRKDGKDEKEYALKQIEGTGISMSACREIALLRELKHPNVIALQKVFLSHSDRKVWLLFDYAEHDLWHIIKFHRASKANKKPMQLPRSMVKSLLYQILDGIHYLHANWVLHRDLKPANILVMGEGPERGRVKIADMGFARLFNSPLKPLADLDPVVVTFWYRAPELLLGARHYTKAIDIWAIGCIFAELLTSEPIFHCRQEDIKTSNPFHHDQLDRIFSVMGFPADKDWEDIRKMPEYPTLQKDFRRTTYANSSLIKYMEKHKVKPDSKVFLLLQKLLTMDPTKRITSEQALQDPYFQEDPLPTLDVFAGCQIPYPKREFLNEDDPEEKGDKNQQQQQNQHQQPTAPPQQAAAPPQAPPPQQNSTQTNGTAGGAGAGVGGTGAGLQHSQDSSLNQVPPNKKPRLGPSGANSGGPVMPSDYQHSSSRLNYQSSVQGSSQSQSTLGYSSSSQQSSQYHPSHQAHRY
Sequence of UniProt Q16816 (whole entry, looked up): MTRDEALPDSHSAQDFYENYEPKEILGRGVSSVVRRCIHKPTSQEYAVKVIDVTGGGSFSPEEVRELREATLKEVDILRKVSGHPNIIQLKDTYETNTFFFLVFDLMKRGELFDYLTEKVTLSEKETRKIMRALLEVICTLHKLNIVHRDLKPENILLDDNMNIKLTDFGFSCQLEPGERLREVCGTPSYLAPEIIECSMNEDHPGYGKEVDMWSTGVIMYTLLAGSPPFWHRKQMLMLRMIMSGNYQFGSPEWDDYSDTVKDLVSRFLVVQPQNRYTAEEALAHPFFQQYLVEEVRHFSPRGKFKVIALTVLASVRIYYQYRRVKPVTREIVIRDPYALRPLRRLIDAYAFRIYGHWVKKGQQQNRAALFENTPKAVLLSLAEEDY
Sequence of UniProt P28482 (whole entry, looked up): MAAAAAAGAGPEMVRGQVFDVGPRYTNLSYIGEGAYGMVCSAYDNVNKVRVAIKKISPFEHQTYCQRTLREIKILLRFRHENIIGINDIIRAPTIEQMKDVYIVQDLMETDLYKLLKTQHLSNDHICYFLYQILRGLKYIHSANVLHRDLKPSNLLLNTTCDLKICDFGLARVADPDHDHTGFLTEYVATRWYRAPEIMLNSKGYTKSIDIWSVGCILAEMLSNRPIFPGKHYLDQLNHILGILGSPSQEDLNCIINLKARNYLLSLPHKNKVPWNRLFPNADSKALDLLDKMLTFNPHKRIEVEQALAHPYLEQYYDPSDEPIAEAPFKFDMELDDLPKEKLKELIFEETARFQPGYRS
Sequence of UniProt P30530 (whole entry, looked up): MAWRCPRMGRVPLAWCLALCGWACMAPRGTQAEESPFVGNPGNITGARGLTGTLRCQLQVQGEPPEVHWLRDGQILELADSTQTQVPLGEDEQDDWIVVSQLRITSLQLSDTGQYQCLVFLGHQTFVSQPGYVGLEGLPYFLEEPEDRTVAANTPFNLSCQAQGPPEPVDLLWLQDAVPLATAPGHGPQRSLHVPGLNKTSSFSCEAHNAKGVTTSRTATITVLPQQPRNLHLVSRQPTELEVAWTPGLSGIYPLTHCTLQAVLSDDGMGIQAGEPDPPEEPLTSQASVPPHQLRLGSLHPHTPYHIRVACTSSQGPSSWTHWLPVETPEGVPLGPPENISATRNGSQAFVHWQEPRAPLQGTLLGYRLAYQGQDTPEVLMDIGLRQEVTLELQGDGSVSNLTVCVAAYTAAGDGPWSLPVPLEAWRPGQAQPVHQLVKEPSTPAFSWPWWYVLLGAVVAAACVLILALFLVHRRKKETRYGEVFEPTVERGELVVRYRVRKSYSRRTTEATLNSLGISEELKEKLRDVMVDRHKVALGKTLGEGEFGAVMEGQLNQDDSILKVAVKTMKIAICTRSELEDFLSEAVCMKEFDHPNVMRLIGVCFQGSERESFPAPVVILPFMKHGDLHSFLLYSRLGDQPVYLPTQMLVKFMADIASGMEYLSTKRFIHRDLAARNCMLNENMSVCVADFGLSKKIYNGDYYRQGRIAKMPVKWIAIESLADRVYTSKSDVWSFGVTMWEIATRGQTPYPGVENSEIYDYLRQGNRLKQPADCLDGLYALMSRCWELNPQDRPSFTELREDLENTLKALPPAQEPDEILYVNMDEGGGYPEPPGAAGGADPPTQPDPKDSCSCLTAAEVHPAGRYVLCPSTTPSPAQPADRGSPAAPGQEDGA
Sequence of UniProt O95819 (whole entry, looked up): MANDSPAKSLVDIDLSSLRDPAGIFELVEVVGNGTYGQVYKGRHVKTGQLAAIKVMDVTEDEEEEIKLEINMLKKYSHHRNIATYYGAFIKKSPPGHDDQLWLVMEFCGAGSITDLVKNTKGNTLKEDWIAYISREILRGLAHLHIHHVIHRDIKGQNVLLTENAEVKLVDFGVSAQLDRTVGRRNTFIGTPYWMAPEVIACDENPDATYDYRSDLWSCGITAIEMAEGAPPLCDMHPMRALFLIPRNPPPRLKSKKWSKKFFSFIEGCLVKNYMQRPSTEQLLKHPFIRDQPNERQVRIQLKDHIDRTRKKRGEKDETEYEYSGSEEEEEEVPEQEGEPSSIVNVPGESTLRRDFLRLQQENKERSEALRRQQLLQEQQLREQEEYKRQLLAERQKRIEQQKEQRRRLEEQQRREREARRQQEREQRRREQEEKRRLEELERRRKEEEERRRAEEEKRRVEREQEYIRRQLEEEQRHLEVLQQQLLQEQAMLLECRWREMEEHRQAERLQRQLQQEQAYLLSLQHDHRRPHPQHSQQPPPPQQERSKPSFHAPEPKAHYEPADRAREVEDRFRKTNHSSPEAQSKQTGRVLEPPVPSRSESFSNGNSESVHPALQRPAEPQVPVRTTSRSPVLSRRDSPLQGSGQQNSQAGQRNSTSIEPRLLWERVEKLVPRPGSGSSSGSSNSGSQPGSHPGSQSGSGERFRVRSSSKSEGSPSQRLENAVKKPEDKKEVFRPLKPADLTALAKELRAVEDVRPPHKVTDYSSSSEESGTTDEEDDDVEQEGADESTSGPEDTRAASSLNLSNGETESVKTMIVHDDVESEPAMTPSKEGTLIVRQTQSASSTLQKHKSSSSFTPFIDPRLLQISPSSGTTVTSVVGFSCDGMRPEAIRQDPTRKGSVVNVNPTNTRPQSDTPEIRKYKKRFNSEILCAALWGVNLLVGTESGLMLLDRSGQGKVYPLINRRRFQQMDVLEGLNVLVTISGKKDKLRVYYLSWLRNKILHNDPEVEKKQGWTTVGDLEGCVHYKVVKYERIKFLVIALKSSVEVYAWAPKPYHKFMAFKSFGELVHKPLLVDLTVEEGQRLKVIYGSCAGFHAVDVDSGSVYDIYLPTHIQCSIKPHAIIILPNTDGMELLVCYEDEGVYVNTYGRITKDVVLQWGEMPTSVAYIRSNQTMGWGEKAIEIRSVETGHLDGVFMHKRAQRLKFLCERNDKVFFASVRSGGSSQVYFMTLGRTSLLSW
Sequence of UniProt Q9UM73 (whole entry, looked up): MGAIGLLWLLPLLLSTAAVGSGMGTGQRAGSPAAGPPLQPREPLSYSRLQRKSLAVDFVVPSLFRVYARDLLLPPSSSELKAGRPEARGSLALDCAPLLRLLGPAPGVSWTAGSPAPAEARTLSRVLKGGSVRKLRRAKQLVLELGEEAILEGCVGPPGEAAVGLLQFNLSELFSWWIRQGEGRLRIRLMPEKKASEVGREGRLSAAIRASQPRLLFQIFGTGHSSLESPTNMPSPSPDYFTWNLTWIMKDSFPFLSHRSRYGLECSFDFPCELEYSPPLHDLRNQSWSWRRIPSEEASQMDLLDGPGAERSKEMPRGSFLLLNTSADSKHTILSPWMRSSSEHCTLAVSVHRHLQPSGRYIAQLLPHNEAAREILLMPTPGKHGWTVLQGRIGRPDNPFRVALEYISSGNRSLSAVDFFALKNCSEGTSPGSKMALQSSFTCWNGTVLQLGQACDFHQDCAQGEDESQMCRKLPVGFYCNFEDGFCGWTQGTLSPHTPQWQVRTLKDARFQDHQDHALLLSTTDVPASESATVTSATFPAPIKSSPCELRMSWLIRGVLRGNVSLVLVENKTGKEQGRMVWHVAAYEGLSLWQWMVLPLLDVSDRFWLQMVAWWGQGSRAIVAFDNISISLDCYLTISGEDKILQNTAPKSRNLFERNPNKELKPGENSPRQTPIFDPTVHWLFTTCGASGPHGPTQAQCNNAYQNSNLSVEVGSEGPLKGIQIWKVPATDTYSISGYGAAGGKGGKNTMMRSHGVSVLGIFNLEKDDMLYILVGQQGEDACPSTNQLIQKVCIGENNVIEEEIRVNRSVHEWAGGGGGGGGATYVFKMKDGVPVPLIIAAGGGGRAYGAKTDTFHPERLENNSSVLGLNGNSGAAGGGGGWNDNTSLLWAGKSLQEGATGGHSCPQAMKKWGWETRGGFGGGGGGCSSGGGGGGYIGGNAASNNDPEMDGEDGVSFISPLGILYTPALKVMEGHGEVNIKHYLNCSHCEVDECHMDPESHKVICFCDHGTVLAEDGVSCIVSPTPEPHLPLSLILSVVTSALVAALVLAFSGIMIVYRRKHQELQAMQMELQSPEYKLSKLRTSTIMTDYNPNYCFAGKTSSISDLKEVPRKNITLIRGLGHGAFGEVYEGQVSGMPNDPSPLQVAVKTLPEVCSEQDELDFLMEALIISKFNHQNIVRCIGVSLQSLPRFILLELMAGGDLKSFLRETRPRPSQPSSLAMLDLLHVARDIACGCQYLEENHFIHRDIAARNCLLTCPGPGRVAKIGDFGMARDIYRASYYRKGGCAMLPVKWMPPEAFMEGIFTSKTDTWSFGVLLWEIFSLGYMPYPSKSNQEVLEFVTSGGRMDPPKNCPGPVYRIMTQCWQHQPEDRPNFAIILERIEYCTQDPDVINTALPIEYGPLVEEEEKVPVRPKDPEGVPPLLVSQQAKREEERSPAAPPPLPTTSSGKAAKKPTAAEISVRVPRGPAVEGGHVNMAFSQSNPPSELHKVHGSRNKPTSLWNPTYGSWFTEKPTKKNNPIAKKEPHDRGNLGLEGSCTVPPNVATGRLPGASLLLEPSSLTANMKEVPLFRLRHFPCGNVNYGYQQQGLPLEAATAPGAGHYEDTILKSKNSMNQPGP

Sample 1 — matrix: 1,9-decadiene/PBS; pH: 7.4
| SMILES | logD |
| --- | --- |
| CC(C)C[C@@H]1NC(=O)[C@H](C)NC(=O)[C@H](C)NC(=O)[C@H](CC(C)C)NC(=O)[C@H](C(C)C)NC(=O)[C@H](CC(C)C)NC(=O)[C@@H](CC(C)C)NC1=O | -0.676 |
| CC(C)C[C@@H]1NC(=O)[C@@H](C)NC(=O)[C@@H](CC(C)C)NC(=O)[C@@H](C(C)C)NC(=O)[C@H](C)NC(=O)[C@H](CC(C)C)NC(=O)[C@@H](CC(C)C)NC1=O | -0.101 |
| CC(C)C[C@@H]1NC(=O)[C@H](CC(C)C)NC(=O)[C@@H](CC(C)C)NC(=O)[C@@H](CC(C)C)NC(=O)[C@@H](CCC(=O)N2CCCC2)NC(=O)[C@H](CC(C)C)NC(=O)[C@@H](CC(C)C)NC1=O | 1.16 |
| CC(C)C[C@@H]1NC(=O)[C@H](CC(C)C)NC(=O)[C@@H](CC(C)C)NC(=O)[C@H](CC(C)C)NC(=O)[C@@H](CCC(=O)N2CCCC2)NC(=O)[C@H](C)NC(=O)[C@H](C)NC1=O | -1.91 |
| CC(C)C[C@@H]1NC(=O)[C@H](CC(C)C)NC(=O)[C@H](CC(C)C)NC(=O)[C@H](CC(C)C)NC(=O)[C@H](C(C)C)NC(=O)[C@H](Cc2cscn2)NC(=O)[C@H](C)NC1=O | 0.266 |
| CC(C)C[C@@H]1NC(=O)[C@H](C)NC(=O)[C@H](CCC(=O)N2CCCC2)NC(=O)[C@H](C)NC(=O)[C@H](CC(C)C)NC(=O)[C@H](CC(C)C)NC(=O)[C@@H](C(C)C)NC1=O | -2.71 |
| CC(C)C[C@@H]1NC(=O)[C@H](C)NC(=O)[C@H](CCC(=O)N2CCCC2)NC(=O)[C@@H](CCC(=O)N2CCCC2)NC(=O)[C@H](CC(C)C)NC(=O)[C@@H](CC(C)C)NC(=O)[C@H](CC(C)C)NC1=O | -2.33 |
| CC(C)C[C@@H]1NC(=O)[C@H](CC(C)C)NC(=O)[C@@H](CC(C)C)NC(=O)[C@H](C)NC(=O)[C@@H](CCC(=O)N2CCCC2)NC(=O)[C@H](C)NC(=O)[C@H](C)NC1=O | -3.7 |
| CC(C)C[C@@H]1NC(=O)[C@H](C)NC(=O)[C@@H](CC(C)C)NC(=O)[C@H](CC(C)C)NC(=O)[C@@H](CCC(=O)N2CCCC2)NC(=O)[C@H](CC(C)C)NC(=O)[C@@H](CC(C)C)NC1=O | -0.154 |
| CC(C)C[C@@H]1NC(=O)[C@H](C(C)C)NC(=O)[C@H](CCC(=O)N2CCCC2)NC(=O)[C@H](CC(C)C)NC(=O)[C@@H](CCC(=O)N2CCCC2)NC(=O)[C@H](CC(C)C)NC(=O)[C@@H](CC(C)C)NC1=O | -0.827 |
| CC(C)C[C@@H]1NC(=O)[C@H](C(C)C)NC(=O)[C@H](CC(C)C)NC(=O)[C@@H](CC(C)C)NC(=O)[C@H](CC(C)C)NC(=O)[C@@H](C)NC(=O)[C@@H](CC(C)C)NC1=O | 1.21 |
| CC(C)C[C@@H]1NC(=O)[C@H](C)NC(=O)[C@@H](CC(C)C)NC(=O)[C@H](C)NC(=O)[C@@H](Cc2cscn2)NC(=O)[C@H](CC(C)C)NC(=O)[C@@H](CC(C)C)NC1=O | -1.92 |
| CC(C)C[C@@H]1NC(=O)[C@H](C)NC(=O)[C@@H](CC(C)C)NC(=O)[C@H](C)NC(=O)[C@H](CC(C)C)NC(=O)[C@H](CC(C)C)NC(=O)[C@@H](C(C)C)NC1=O | -0.169 |
| CC(C)C[C@@H]1NC(=O)[C@H](CC(C)C)NC(=O)[C@@H](CC(C)C)NC(=O)[C@@H](CC(C)C)NC(=O)[C@@H](Cc2cscn2)NC(=O)[C@H](CC(C)C)NC(=O)[C@@H](CC(C)C)NC1=O | 1.27 |

Sample 2 — effect on: enzyme activity; mode: inhibitor; tested at: 0.5 µM; reference: control
Structure (SMILES): CC(C)[C@H](CO)Nc1nc(Nc2cccc(Cl)c2)c2ncn(C(C)C)c2n1
| target | remaining activity [%] |
| --- | --- |
| MAP4K4 (Homo sapiens, UniProt O95819) | 84.9 |
| CAMK2B (Homo sapiens, UniProt Q13554) | 94.3 |
| ABL1 (Homo sapiens, UniProt P00519) | 75.6 |
| PHKG1 (Homo sapiens, UniProt Q16816) | 89.9 |
| AXL (Homo sapiens, UniProt P30530) | 94.7 |
| BLK (Homo sapiens, UniProt P51451) | 68.8 |
| DYRK3 (Homo sapiens, UniProt O43781) | 105 |
| EPHB4 (Homo sapiens, UniProt P54760) | 71.7 |
| Cyclin-dependent kinase 4, with cyclin D3 (CDK4, Homo sapiens, UniProt P11802) | 88.3 |
| WNK3 (Homo sapiens, UniProt Q9BYP7) | 89.1 |
| RPS6KA6 (Homo sapiens, UniProt Q9UK32) | 96.8 |
| EPHB1 (Homo sapiens, UniProt P54762) | 83.5 |
| STK16 (Homo sapiens, UniProt O75716) | 102 |
| SRMS (Homo sapiens, UniProt Q9H3Y6) | 104 |
| MAPKAPK3 (Homo sapiens, UniProt Q16644) | 85.4 |
| PRKACG (Homo sapiens, UniProt P22612) | 113 |
| PDPK1 (Homo sapiens, UniProt O15530) | 91.6 |
| STK17A (Homo sapiens, UniProt Q9UEE5) | 95 |
| HIPK2 (Homo sapiens, UniProt Q9H2X6) | 86.3 |
| RPS6KA5 (Homo sapiens, UniProt O75582) | 100 |
| Cyclin-dependent kinase 6, with cyclin D3 (CDK6, Homo sapiens, UniProt Q00534) | 71 |
| TSSK2 (Homo sapiens, UniProt Q96PF2) | 97.5 |

Sample 3 — organism: Sarcocystis neurona; effect on: parasite activity; tested at: concentration not given
| Compound | activity class |
| --- | --- |
| CN1CCN(c2nc3cc(C(F)(F)F)ccc3n3cccc23)CC1 | inactive |
| Cc1cccc(CCN2CCC(C(=O)c3ccc(NS(C)(=O)=O)cc3)CC2)n1.Cl.Cl | inactive |
| CN[C@@H]1[C@H](O)[C@H](NC)[C@H]2O[C@@]3(O)C(=O)C[C@@H](C)O[C@H]3O[C@@H]2[C@H]1O.Cl.Cl | inactive |
| Cl.NC(N)=NC(=O)c1nc(Cl)c(N)nc1N.O | inactive |
| CC(CN1c2ccccc2Sc2ccccc21)N(C)C.Cl (stereo not shown) | inactive |
| C[C@]12CCC(=O)C=C1CC[C@@H]1[C@@H]2[C@@H](O)C[C@@]2(C)[C@H]1CC[C@]2(O)C(=O)COC(=O)CCC(=O)O | inactive |
| COc1ccc(CN2CCN(C(c3ccc(F)cc3)c3ccc(F)cc3)CC2)c(OC)c1OC.Cl.Cl | inactive |
| O=C(O)c1cc2ccccc2c(Cc2c(O)c(C(=O)O)cc3ccccc23)c1O.OCCOCCN1CCN(C(c2ccccc2)c2ccc(Cl)cc2)CC1 | inactive |
| Cc1onc(-c2ccccc2)c1C(=O)N[C@@H]1C(=O)N2[C@@H]1SC(C)(C)[C@@H]2C(=O)O | inactive |
| CC1(C)O[C@@H]2C[C@H]3[C@@H]4CCC5=CC(=O)C=C[C@]5(C)[C@@]4(F)[C@@H](O)C[C@]3(C)[C@]2(C(=O)CO)O1 | inactive |
| CC(C)NCC(O)c1ccc(O)c(O)c1.Cl (stereo not shown) | inactive |
| CN1CCN(c2c(F)cc3c(=O)c(C(=O)O)cn4c3c2SCC4)CC1.Cl | inactive |
| CN1C(=O)CC[C@H]1c1cccnc1 | inactive |
| CCCc1nc(C)c2c(=O)[nH]c(-c3cc(S(=O)(=O)N4CCN(CC)CC4)ccc3OCC)nn12.O=C(O)CC(O)(CC(=O)O)C(=O)O | inactive |
| COc1ccccc1N1CCN(CCCNc2cc(=O)n(C)c(=O)n2C)CC1.Cl | inactive |

Sample 4 — tested at: 1 µM
SMILES: CCCCN(CCCC)C(=O)CN1C[C@H](c2cc(OC)c3c(c2)OCO3)[C@@H](C(=O)O)[C@@H]1CC(C)(C)CCC
| target | effect on | technique | remaining binding [%] |
| --- | --- | --- | --- |
| PAK4 (Homo sapiens, UniProt O96013) | cell-free assay | competition with immobilised ligand | 100 |
| PRKD3 (Homo sapiens, UniProt O94806) | cell-free assay | competition with immobilised ligand | 90.2 |
| DMPK (Homo sapiens, UniProt Q09013) | cell-free assay | competition with immobilised ligand | 100 |
| SIK1 (Homo sapiens, UniProt P57059) |  | competition binding | 100 |
| MTOR (Homo sapiens, UniProt P42345) | cell-free assay | competition with immobilised ligand | 100 |
| FRK (Homo sapiens, UniProt P42685) | cell-free assay | competition with immobilised ligand | 100 |
| CDK19 (Homo sapiens, UniProt Q9BWU1) |  | competition binding | 100 |
| MAPK1 (Homo sapiens, UniProt P28482) | cell-free assay | competition with immobilised ligand | 100 |
| PDGFRB (Homo sapiens, UniProt P09619) | cell-free assay | competition with immobilised ligand | 100 |
| LCK (Homo sapiens, UniProt P06239) | cell-free assay | competition with immobilised ligand | 100 |
| SYK (Homo sapiens, UniProt P43405) | cell-free assay | competition with immobilised ligand | 100 |
| PAK2 (Homo sapiens, UniProt Q13177) | cell-free assay | competition with immobilised ligand | 100 |
| PRPF4B (Homo sapiens, UniProt Q13523) | cell-free assay | competition with immobilised ligand | 100 |
| BRSK1 (Homo sapiens, UniProt Q8TDC3) | cell-free assay | competition with immobilised ligand | 100 |
| EPHA5 (Homo sapiens, UniProt P54756) | cell-free assay | competition with immobilised ligand | 100 |
| ALK (Homo sapiens, UniProt Q9UM73) | cell-free assay | competition with immobilised ligand | 58.3 |

For quick reference, copied from above (sample 4):
| target | effect on | technique | remaining binding [%] |
| --- | --- | --- | --- |
| MAPK1 (Homo sapiens, UniProt P28482) | cell-free assay | competition with immobilised ligand | 100 |
| PAK4 (Homo sapiens, UniProt O96013) | cell-free assay | competition with immobilised ligand | 100 |
| SYK (Homo sapiens, UniProt P43405) | cell-free assay | competition with immobilised ligand | 100 |
| CDK19 (Homo sapiens, UniProt Q9BWU1) |  | competition binding | 100 |
| PAK2 (Homo sapiens, UniProt Q13177) | cell-free assay | competition with immobilised ligand | 100 |
